Assay results from different studies.
Lines come from different studies, so protocols differ. Several values in a cell are separate wells, animals, samples, runs or records. ≈ marks a conversion by molar mass, not a printed value.
Organism: Acinetobacter baumannii

NC[C@H]1O[C@H](O[C@H]2[C@H](O)[C@@H](O[C@H]3O[C@H](CO)[C@@H](O)[C@H](N)[C@H]3O)[C@H](N)C[C@@H]2N)[C@H](O)[C@@H](O)[C@@H]1O
growth inhibition (concentration not given, 0.2 mg/mL): 94%

Cc1cc(Nc2ccc(S(F)(F)(F)(F)F)cc2)n2ccnc2n1
MIC (HR1 clinical isolate): 1.09 µg/mL

c1ccc(CSc2nc3ccc(-c4ccccc4)cc3cc2CNCCC2CCN(C3CCCC3)CC2)cc1
inhibition (NADH-driven proton pumping, ACMA quenching; inverted membrane vesicles; 32 µg/mL): 95%

N=C(N)c1ccc(OCc2cc(Br)cc(COc3ccc(C(=N)N)cc3)c2)cc1
FICI (checkerboard; ATCC 17978; unit not given, with: rifampicin; lower = stronger synergy): ≤ 0.047

C[C@@H](O)[C@H]1C(=O)N2C(C(=O)O)=C(SCCN=CN)C[C@H]12
bacterial load (0403, female ICR mice, peritonitis, kidney; dose not given): 2.52 log CFU and 3.64 log CFU and 3.75 log CFU and 3.82 log CFU and 2.82 log CFU and 3.3 log CFU

N=C(N)c1ccc(OCc2ccc(Br)cc2COc2ccc(C(=N)N)cc2)cc1
FICI (checkerboard; ATCC 17978; unit not given, with: rifampicin; lower = stronger synergy): ≤ 0.047

c1ccc(CSc2nc3ccccc3cc2CNCc2ccc(CN3CCCC3)cc2)cc1
inhibition (NADH-driven proton pumping, ACMA quenching; inverted membrane vesicles; 2 µg/mL): 20%

Cc1c(CN(C)C(=O)/C=C/c2cnc3c(c2)CCC(=O)N3)oc2ccccc12
MIC (broth microdilution; AR-0313): > 32 µg/mL

CCN1CCC(CCNCc2cc3cc(-c4ccccc4)ccc3nc2SCc2ccccc2)CC1
inhibition (NADH-driven proton pumping, ACMA quenching; inverted membrane vesicles; 2 µg/mL): 0%

N=C(N)c1ccc(OCc2ccc(-c3ccccc3)cc2COc2ccc(C(=N)N)cc2)cc1
MIC in combination (ATCC 17978; concentration not given, with: rifampicin): 3.13 µg/mL

c1ccc(CSc2nc3ccccc3cc2CNCc2ccc(N3CCCCC3)cc2)cc1
inhibition (NADH-driven proton pumping, ACMA quenching; inverted membrane vesicles; 2 µg/mL): 10%

C[C@@H](O)[C@H]1C(=O)N2C(C(=O)O)=C(S[C@@H]3CN[C@H](C(=O)N(C)C)C3)[C@H](C)[C@H]12
MIC (clinical isolate 2B5): 96 µg/mL

N=C(N)c1ccc(OCCC(CCOc2ccc(C(=N)N)cc2)c2ccccc2)cc1 (stereo not drawn)
MIC in combination (ATCC 17978; concentration not given, with: rifampicin): 12.5 µg/mL

NCCCC[C@H](NC(=O)[C@H](Cc1ccccc1)NC(=O)[C@H](CCC(N)=O)NC(=O)[C@H](Cc1ccccc1)NC(=O)[C@H](CCC(N)=O)NC(=O)[C@@H](N)Cc1ccccc1)C(N)=O
MBC: 2080 µM (≈ 1750 µg/mL)

CN(C)[C@@H]1C(O)=C(C(N)=O)C(=O)[C@@]2(O)C(O)=C3C(=O)c4c(O)cccc4[C@@](C)(O)[C@H]3C[C@@H]12
MIC fold shift (broth microdilution; NCTC 13424; baseline: 5% CO2 over ambient air): 0.5

CC1(C)S[C@@H]2[C@H](NC(=O)[C@H](N)c3ccccc3)C(=O)N2[C@H]1C(=O)O
MIC (ATCC BAA-1797, resistant; 18 h, 37 °C, dark): > 128 µM

COc1cc2cc(CNCCC3CCN(C4CCCC4)CC3)c(SCc3ccccc3)nc2c(OC)c1OC
inhibition (NADH-driven proton pumping, ACMA quenching; inverted membrane vesicles; 2 µg/mL): 3%

CN(C)c1ccc(O)c2c1C[C@H]1C[C@H]3[C@H](N(C)C)C(O)=C(C(N)=O)C(=O)[C@@]3(O)C(O)=C1C2=O
MIC fold shift (broth microdilution; NCTC 13424; baseline: 5% CO2 over ambient air): 1

CCN1CCC(CCNCc2cc3cc(Br)ccc3nc2SCc2ccccc2)CC1
inhibition (NADH-driven proton pumping, ACMA quenching; inverted membrane vesicles; 32 µg/mL): 85%

Cc1c(CN(C)C(=O)/C=C/c2cnc3c(c2)CC(NC(=O)OC(C)(C)C)C(=O)N3)oc2ccccc12 (stereo not drawn)
MIC (broth microdilution; AR-0078): > 32 µg/mL

COc1cc2cc(CNCCN3CCN(C)CC3)c(SCc3ccccc3)nc2c(OC)c1OC
inhibition (NADH-driven proton pumping, ACMA quenching; inverted membrane vesicles; 2 µg/mL): 1%

N=C(N)c1ccc(OCc2cc(COc3ccc(C(=N)N)cc3)cc(-c3ccccc3)c2)cc1
FICI (checkerboard; ATCC 17978; unit not given, with: rifampicin; lower = stronger synergy): ≤ 0.023

Brc1ccc2nc(SCc3ccccc3)c(CNCc3ccc(CN4CCCC4)cc3)cc2c1
inhibition (NADH-driven proton pumping, ACMA quenching; inverted membrane vesicles; 32 µg/mL): 81%

N=C(N)c1ccc(OCc2cccc(COc3ccc(C(=N)N)cc3)c2)cc1
MIC in combination (ATCC 17978; concentration not given, with: rifampicin): 25 µg/mL

Excerpt of the above:
N=C(N)c1ccc(OCCC(CCOc2ccc(C(=N)N)cc2)c2ccccc2)cc1 (stereo not drawn)
MIC in combination (ATCC 17978; concentration not given, with: rifampicin): 12.5 µg/mL

NCCCC[C@H](NC(=O)[C@H](Cc1ccccc1)NC(=O)[C@H](CCC(N)=O)NC(=O)[C@H](Cc1ccccc1)NC(=O)[C@H](CCC(N)=O)NC(=O)[C@@H](N)Cc1ccccc1)C(N)=O
MBC: 2080 µM (≈ 1750 µg/mL)

CN(C)[C@@H]1C(O)=C(C(N)=O)C(=O)[C@@]2(O)C(O)=C3C(=O)c4c(O)cccc4[C@@](C)(O)[C@H]3C[C@@H]12
MIC fold shift (broth microdilution; NCTC 13424; baseline: 5% CO2 over ambient air): 0.5

CC1(C)S[C@@H]2[C@H](NC(=O)[C@H](N)c3ccccc3)C(=O)N2[C@H]1C(=O)O
MIC (ATCC BAA-1797, resistant; 18 h, 37 °C, dark): > 128 µM
